Measurements of several laboratories.

`COc1cc(Nc2ncc3c(n2)-c2ccc(Cl)cc2C(c2c(F)cccc2OC)=NC3)ccc1C(=O)O`: “trough concentration (C12)” 278 ng/mL (human patients, plasma; oral, 40 mg, cycle 1 day 1, added: pembrolizumab).
`C[C@@H]1CCO[C@H]2Cn3cc(C(=O)NCc4ccc(F)cc4F)c(=O)c(O)c3C(=O)N12` — result for “trough concentration (C24)”: 369 ng/mL (human paediatric patients, weight sample C to under sample D kg, plasma; oral, 25 mg film-coated tablet, 24 h, steady state, geometric mean, population PK post-hoc, N 26).
`Cc1ccc([C@@H]2O[C@H](CO)[C@@H](O)[C@H](O)[C@H]2O)cc1Cc1ccc(-c2ccc(F)cc2)s1` has a trough concentration of 125 ng/mL (human, maintenance hemodialysis patients; oral, 100 mg once daily, steady state, median).
For `N#Cc1ccc2c(c1)[C@H]1CCCN(C(=O)c3ccc4[nH]cnc4c3)[C@H]1C2`, “trough plasma concentration” read 2870 nmol/L (human, plasma; 240 mg once daily, day 2).
For `NC(=O)N1c2ccccc2C=Cc2ccccc21`, the trough concentration was 5930 ng/mL (healthy human subjects, plasma; oral, dose not given, 12 h, twice daily, alone).
`O=C1Nc2ccc(Cl)cc2[C@@](C#CC2CC2)(C(F)(F)F)O1`: “trough plasma concentration” 2260 ng/mL (human, plasma; oral, 600 mg, day 29, median).
`Cc1cnc(N2CC3(CCOCC3)C2)c(C(=O)Nc2ccc(C(=O)N3CCc4cc(C(=O)Nc5c(C)cccc5F)sc4-c4ccccc43)cc2)c1` has a trough concentration of 8430 ng/mL (human, nasal mucosal lining fluid; inhaled, 5 mg twice daily, 120 h).
For `Cc1ccc(C)c(OCCCC(C)(C)C(=O)O)c1`, “trough plasma concentration” read 1810 ng/mL (human, plasma; oral, dose not given, day 15 predose, geometric mean).
`CC1(C)CCC(CN2CCN(c3ccc(C(=O)NS(=O)(=O)c4ccc(NCC5CCOCC5)c([N+](=O)[O-])c4)c(Oc4cnc5[nH]ccc5c4)c3)CC2)=C(c2ccc(Cl)cc2)C1` has a trough concentration of 51 to 6160 ng/mL (UPLC-MS/MS; human patients; oral, dose not given, steady state, range).
For `CC1(C)CC[C@]2(NC(=O)C(C)(F)F)CC[C@]3(C)[C@H](C(=O)C=C4[C@@]5(C)C=C(C#N)C(=O)C(C)(C)[C@@H]5CC[C@]43C)[C@@H]2C1`, “trough plasma concentration” read 30.3 ng/mL (human, plasma; oral, 150 mg, day 21 predose, geometric mean).
With `Cn1cncc1[C@@](N)(c1ccc(Cl)cc1)c1ccc2c(c1)c(-c1cccc(Cl)c1)cc(=O)n2C` the trough concentration was 79 ng/mL (human, plasma; oral, 300 mg/m^2, 12 h after first dose, median, second cohort).

Excerpt of the above:
`C[C@@H]1CCO[C@H]2Cn3cc(C(=O)NCc4ccc(F)cc4F)c(=O)c(O)c3C(=O)N12` — result for “trough concentration (C24)”: 369 ng/mL (human paediatric patients, weight sample C to under sample D kg, plasma; oral, 25 mg film-coated tablet, 24 h, steady state, geometric mean, population PK post-hoc, N 26).
